Assay results gathered from unrelated publications.
PTGS2: Prostaglandin G/H synthase 2 (PTGS2, Homo sapiens, UniProt P35354)
Sequence of UniProt P35354 (whole entry, looked up): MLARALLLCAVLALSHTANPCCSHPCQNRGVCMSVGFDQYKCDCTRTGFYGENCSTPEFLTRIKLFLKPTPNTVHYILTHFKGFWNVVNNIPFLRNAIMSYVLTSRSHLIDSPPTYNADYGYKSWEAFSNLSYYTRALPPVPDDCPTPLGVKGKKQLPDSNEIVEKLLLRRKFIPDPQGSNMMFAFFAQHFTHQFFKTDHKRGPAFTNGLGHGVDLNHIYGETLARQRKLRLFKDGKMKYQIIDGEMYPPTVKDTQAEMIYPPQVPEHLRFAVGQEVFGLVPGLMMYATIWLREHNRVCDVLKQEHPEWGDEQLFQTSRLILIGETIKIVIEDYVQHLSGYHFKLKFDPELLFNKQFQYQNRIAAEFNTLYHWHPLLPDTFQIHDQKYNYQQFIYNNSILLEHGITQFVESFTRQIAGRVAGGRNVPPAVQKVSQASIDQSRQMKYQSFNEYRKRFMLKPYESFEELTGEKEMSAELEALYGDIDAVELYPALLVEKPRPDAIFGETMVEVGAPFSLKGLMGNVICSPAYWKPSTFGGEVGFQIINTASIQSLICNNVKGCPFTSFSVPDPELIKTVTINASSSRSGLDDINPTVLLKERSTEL
MPO: Myeloperoxidase (MPO, Homo sapiens, UniProt P05164)
Sequence of UniProt P05164 (whole entry, looked up): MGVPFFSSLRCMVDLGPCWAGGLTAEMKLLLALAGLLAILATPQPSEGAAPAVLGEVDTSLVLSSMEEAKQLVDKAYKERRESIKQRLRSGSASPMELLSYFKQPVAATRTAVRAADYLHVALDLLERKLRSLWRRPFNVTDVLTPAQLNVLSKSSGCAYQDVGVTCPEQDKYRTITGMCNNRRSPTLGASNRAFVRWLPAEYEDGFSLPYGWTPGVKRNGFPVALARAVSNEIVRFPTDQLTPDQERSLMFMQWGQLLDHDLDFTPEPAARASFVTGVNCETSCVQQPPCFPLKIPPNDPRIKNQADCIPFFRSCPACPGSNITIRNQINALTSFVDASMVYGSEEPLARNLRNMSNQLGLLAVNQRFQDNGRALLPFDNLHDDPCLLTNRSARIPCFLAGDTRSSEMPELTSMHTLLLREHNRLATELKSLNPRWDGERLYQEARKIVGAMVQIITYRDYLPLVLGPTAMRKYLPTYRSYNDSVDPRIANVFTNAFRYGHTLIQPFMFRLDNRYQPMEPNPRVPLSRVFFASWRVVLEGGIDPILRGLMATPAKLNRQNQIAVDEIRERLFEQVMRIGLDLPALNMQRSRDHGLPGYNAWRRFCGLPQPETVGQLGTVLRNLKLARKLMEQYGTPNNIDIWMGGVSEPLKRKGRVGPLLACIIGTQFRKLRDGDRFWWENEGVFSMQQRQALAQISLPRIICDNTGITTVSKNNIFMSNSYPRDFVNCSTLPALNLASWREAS
HDAC6: Protein deacetylase HDAC6 (HDAC6, Homo sapiens, UniProt Q9UBN7)
Sequence of UniProt Q9UBN7 (whole entry, looked up): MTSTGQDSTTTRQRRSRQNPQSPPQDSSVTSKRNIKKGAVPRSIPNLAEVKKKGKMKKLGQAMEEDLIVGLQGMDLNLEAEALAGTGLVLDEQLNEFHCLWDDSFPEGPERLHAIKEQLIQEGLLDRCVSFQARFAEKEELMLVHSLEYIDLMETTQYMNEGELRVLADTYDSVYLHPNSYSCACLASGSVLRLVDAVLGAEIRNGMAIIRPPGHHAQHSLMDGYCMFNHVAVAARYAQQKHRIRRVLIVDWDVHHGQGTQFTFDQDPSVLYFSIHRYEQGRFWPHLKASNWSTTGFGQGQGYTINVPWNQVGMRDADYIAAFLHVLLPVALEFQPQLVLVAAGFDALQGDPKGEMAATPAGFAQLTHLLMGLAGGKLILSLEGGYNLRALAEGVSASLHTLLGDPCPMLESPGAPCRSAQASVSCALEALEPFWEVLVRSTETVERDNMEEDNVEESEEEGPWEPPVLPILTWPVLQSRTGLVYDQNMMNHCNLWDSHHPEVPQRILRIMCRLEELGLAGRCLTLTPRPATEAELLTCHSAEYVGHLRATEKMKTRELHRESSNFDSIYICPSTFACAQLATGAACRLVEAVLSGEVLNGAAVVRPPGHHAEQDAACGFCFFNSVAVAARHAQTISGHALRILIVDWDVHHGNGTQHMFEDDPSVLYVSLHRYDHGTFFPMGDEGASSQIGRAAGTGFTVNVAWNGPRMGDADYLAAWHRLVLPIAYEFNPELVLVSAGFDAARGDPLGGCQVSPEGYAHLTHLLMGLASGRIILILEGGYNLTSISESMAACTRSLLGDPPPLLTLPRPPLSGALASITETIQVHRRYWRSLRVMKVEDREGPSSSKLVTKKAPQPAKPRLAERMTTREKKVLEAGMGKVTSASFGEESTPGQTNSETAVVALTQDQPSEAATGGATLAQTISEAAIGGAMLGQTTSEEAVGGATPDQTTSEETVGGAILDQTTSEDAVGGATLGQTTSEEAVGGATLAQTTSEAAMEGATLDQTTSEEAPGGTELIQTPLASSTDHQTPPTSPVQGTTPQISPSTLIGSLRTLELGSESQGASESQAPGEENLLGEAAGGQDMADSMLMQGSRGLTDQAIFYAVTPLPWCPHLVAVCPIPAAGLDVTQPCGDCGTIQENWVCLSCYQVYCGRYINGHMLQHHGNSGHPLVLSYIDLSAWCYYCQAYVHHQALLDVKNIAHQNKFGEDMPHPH
SIRT6: NAD-dependent protein deacylase sirtuin-6 (SIRT6, Homo sapiens, UniProt Q8N6T7)
USP51: Ubiquitin carboxyl-terminal hydrolase 51 (USP51, Homo sapiens, UniProt Q70EK9)
Sequence of UniProt Q70EK9 (whole entry, looked up): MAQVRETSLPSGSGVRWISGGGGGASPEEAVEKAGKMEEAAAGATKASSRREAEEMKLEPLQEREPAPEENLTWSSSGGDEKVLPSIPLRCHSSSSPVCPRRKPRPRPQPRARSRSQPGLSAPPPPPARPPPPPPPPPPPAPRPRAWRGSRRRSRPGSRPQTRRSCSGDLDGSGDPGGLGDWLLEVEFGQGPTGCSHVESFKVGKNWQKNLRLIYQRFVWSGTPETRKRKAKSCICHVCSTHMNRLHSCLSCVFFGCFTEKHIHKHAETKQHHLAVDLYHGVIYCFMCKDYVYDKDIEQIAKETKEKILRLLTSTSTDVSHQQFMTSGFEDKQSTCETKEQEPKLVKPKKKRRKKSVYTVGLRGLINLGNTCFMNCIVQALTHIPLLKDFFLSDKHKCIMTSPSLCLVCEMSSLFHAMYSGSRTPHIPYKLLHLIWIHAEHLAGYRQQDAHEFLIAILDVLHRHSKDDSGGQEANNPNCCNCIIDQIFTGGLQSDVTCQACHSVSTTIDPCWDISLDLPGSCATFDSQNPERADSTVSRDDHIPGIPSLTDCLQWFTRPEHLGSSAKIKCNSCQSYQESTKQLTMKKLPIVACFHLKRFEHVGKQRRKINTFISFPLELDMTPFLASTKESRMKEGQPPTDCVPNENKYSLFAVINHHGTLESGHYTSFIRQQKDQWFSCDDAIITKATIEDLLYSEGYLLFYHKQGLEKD
HDAC1: Histone deacetylase 1 (HDAC1, Homo sapiens, UniProt Q13547)
Sequence of UniProt Q13547 (whole entry, looked up): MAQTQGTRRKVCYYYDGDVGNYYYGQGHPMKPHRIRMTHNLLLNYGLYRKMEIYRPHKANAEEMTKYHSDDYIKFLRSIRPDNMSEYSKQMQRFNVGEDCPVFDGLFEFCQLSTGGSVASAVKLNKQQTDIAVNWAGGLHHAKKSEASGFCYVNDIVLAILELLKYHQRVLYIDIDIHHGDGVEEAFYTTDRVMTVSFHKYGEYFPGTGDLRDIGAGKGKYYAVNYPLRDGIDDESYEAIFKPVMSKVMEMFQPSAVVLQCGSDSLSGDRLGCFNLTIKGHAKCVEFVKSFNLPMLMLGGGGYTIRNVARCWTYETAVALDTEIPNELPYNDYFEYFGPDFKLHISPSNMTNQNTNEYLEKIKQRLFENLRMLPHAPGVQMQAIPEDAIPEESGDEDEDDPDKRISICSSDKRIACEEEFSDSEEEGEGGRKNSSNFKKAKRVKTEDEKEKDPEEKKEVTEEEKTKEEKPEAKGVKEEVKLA
PDE10A: cAMP and cAMP-inhibited cGMP 3',5'-cyclic phosphodiesterase 10A (PDE10A, Homo sapiens, UniProt Q9Y233)
Sequence of UniProt Q9Y233 (whole entry, looked up): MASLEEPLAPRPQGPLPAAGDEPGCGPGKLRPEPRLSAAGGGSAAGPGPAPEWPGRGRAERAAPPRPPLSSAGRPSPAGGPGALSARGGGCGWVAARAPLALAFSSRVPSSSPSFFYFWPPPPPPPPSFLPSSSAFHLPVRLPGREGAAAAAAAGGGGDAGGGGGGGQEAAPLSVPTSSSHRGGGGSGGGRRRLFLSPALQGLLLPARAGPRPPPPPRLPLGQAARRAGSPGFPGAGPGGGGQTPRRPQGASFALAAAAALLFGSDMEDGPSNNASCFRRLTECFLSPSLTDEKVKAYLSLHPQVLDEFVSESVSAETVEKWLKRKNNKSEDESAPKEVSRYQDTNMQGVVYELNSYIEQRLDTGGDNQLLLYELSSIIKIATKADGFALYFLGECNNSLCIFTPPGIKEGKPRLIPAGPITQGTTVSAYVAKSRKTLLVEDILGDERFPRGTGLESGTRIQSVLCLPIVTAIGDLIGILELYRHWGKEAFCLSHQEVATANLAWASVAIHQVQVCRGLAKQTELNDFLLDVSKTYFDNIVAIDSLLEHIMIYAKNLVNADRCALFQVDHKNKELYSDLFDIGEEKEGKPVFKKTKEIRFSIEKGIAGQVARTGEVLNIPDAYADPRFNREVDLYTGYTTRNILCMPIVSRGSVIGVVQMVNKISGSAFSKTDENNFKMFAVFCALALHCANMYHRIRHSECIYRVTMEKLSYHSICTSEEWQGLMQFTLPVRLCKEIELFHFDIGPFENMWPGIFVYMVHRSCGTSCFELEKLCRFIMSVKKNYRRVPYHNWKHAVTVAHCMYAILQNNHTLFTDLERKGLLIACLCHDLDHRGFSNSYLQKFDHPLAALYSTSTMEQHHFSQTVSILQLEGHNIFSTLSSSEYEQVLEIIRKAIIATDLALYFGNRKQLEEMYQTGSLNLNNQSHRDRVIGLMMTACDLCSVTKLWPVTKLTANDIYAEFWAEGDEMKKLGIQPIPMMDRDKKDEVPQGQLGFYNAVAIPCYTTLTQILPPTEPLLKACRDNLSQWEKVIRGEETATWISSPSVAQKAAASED
HUNK: Hormonally up-regulated neu tumor-associated kinase (HUNK, Homo sapiens, UniProt P57058)
SCN1A: Sodium channel protein type 1 subunit alpha (SCN1A, Homo sapiens, UniProt P35498)
Sequence of UniProt P00374 (whole entry, looked up): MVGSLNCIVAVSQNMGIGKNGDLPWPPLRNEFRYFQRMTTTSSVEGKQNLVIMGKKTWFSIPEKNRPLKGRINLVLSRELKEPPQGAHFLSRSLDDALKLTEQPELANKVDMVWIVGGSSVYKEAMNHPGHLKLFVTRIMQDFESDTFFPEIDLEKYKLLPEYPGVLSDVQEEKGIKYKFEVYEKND

| Compound | target or system | test | system | conditions | endpoint | value |
| --- | --- | --- | --- | --- | --- | --- |
| O=C1CC[C@H](N2Cc3cc(N4CCN(CC5CCN(c6ccc([C@@H]7c8ccc(O)cc8CC[C@@H]7c7ccccc7)cc6)CC5)CC4)ccc3C2=O)C(=O)N1 |  |  | Sprague-Dawley rat, liver microsomes | 2.5 µM, 6 h | fraction unbound | 0.11 |
| COC(=O)c1ccc(O)cc1 | PTGS2 | enzyme activity, inhibitor |  | 3.9 µg/mL | inhibition | 5.02% |
| CC(C)c1[nH]c2nc(N)nn2c(=O)c1Cc1cccc(Cl)c1 | C-C chemokine receptor type 5 (CCR5, Homo sapiens, UniProt P51681) | β-arrestin recruitment, antagonist |  | 1 µM | inhibition | 83% |
| NC/C(=C\F)COc1cccc(Cn2c(=S)[nH]c(=O)c3[nH]cnc32)c1 | MPO | enzyme activity, inhibitor, fluorescence |  | 0.1235 µM | inhibition | 96% |
| COc1cccc(-c2n[nH]c(SCc3ccccn3)n2)c1OC |  |  | female Sprague-Dawley rat, plasma | oral, 10 mg/kg, 1 h, single dose | concentration | 4940 ng/mL |
| Cc1c(OS(=O)(=O)Oc2ccccc2)cccc1C(=O)NO | HDAC6 | enzyme activity, inhibitor, fluorescence |  | 10 µM | inhibition | 40% |
| O=c1cc(-c2ccc(O)c(O)c2)oc2cc(O)cc(O)c12 | PTGS2 | enzyme activity, inhibitor |  | 31.25 µg/mL | inhibition | 100% |
| S=C(NN=Cc1ccc(N2CCCCC2)cc1)Nc1ccc(Br)cc1 | Dihydrofolate reductase (DHFR, Homo sapiens, UniProt P00374) | enzyme activity, inhibitor |  | 500 µM | inhibition | 86.3% |
| NC(=O)c1ccc(C(=O)NOCc2ccc(Sc3ccccc3)c(C(F)(F)F)c2)cc1 | SIRT6 | enzyme activity, inhibitor, fluorescence |  | 100 µM | inhibition | 98.6% |
| COc1cc([C@H]2OC[C@H]3[C@@H]2CO[C@@H]3c2cc(OC)c(O)c(OC)c2)cc(OC)c1O | PTGS2 | enzyme activity, inhibitor |  | 0.49 µg/mL | inhibition | 32.2% |
| CC[C@@]1(O)C(=O)OCc2c1cc1n(c2=O)Cc2cc3c(CN(C)C)c(O)ccc3nc2-1 | USP51 | enzyme activity, inhibitor |  | 5 µM | inhibition | 31% |
| Cc1c(OS(=O)(=O)Oc2ccc(-n3ccnc3)cc2)cccc1C(=O)NO | HDAC1 | enzyme activity, inhibitor, fluorescence |  | 5 µM | inhibition | 7% |
| O=c1cc(-c2ccc(O)cc2)oc2cc(O)cc(O)c12 | PTGS2 | enzyme activity, inhibitor |  | 1.95 µg/mL | inhibition | 36.2% |
| CC[C@H](C)[C@H](NC(=O)[C@H](CCC(N)=O)NC(=O)[C@@H](NC(=O)[C@H](CCSC)NC(=O)[C@H](CCCCN)NC(=O)[C@H](CO)NC(=O)[C@@H](NC(=O)[C@H](CCSC)NC(=O)[C@H](CC(C)C)NC(=O)[C@H](CC(N)=O)NC(=O)[C@@H](NC(=O)[C@@H](NC(=O)[C@H](CO)NC(=O)[C@H](CC(C)C)NC(=O)[C@H](C)NC(=O)[C@H](CCCNC(=N)N)NC(=O)[C@H](CCC(=O)O)NC(=O)[C@H](Cc1ccc(O)cc1)NC(=O)[C@H](Cc1ccccc1)NC(=O)[C@H](C)NC(=O)[C@H](CC(N)=O)NC(=O)[C@@H](N)CCCCN)[C@@H](C)CC)[C@@H](C)CC)[C@@H](C)O)C(C)C)C(=O)N[C@@H](CC(N)=O)C(=O)N[C@H](C(=O)O)C(C)C | Cyclin-dependent kinase 5, with p35 (CDK5, Homo sapiens, UniProt Q00535) | enzyme activity, inhibitor, radiometric |  | 10 µM | inhibition | 14% |
| COc1cc2ccc(=O)oc2c(O[C@@H]2O[C@H](CO)[C@@H](O)[C@H](O)[C@H]2O)c1O | USP51 | enzyme activity, inhibitor |  | 5 µM | inhibition | 0% |
| COc1ccc2nccc(Cc3cccc(-c4ccc(C5COC5)cc4)c3)c2c1 | PDE10A | enzyme activity, inhibitor, FP |  | 0.1 µM | inhibition | 14% |
| Cc1cc(OS(=O)(=O)Oc2ccc(C(C)(C)C)cc2C)cc(C(=O)NO)c1 | HDAC6 | enzyme activity, inhibitor, fluorescence |  | 10 µM | inhibition | 22% |
| COc1cc(-c2cc(=O)c3c(O)cc(O)cc3o2)ccc1O | PTGS2 | enzyme activity, inhibitor |  | 0.12 µg/mL | inhibition | 0% |
| CC12CC3CC(C)(C1)CC(N)(C3)C2 | Potassium voltage-gated channel subfamily A member 1 (KCNA1, Homo sapiens, UniProt Q09470) | ion current, inhibitor, patch clamp |  | 10 µM | inhibition | 19.5% |
| CNc1ncc2c(/C=C/C(=O)N3CCC(OC)CC3)nn(Cc3cccc(C(F)(F)F)c3)c2n1 | Tyrosine-protein kinase Srms (SRMS, Homo sapiens, UniProt Q9H3Y6) | enzyme activity, inhibitor, radiometric |  | 1 µM | remaining activity | 91% |
| CCCCC(=O)Nc1ccc(-c2ccc3ncn(CCC)c(=O)c3c2)cn1 | HUNK | binding, competition with immobilised ligand |  | 0.5 µM | remaining binding | 100% |
| CO[C@H]1O[C@@H]2O[C@@]3(C)CC[C@H]4[C@H](C)CC[C@@H]([C@H]1C)[C@@]24OO3 | USP51 | enzyme activity, inhibitor |  | 5 µM | inhibition | 10% |
| CN1CC(Oc2cnc(C#N)cc2-c2ccn3nc(NC(=O)C4CC4)cc3c2)C1 | Ephrin type-B receptor 4 (EPHB4, Homo sapiens, UniProt P54760) | enzyme activity, inhibitor |  | 1 µM | inhibition | 1% |
| CC(C)(C)c1ccc(OS(=O)(=O)Oc2cc(F)cc(C(=O)NO)c2)cc1 | HDAC1 | enzyme activity, inhibitor, fluorescence |  | 5 µM | inhibition | 10% |
| O=C(O)c1ccc(O)cc1 | PTGS2 | enzyme activity, inhibitor |  | 0.12 µg/mL | inhibition | 3.08% |

| Compound | target or system | test | system | conditions | endpoint | value |
| --- | --- | --- | --- | --- | --- | --- |
| CC(=O)O[C@@]12CO[C@@H]1C[C@H](O)[C@@]1(C)C(=O)[C@H](O)C3=C(C)[C@@H](OC(=O)[C@H](O)[C@@H](NC(=O)OC(C)(C)C)c4ccccc4)C[C@@](O)([C@@H](OC(=O)c4ccccc4)[C@H]21)C3(C)C | USP51 | enzyme activity, inhibitor |  | 5 µM | inhibition | 0% |
| Oc1cccc(Nc2nc(-c3ccc(F)cc3F)cs2)c1 | Delta-type opioid receptor (OPRD1, Homo sapiens, UniProt P41143) | ligand displacement |  | 10 µM | inhibition | 46.7% |
| CCCN1C[C@H](CSC)C[C@@H]2c3cccc4[nH]cc(c34)C[C@H]21 | SCN1A | ion current, inhibitor, patch clamp |  | 3 µM | inhibition | 18.7% |
| O=c1c(-c2ccc(O)cc2)coc2cc(O)cc(O)c12 | USP51 | enzyme activity, inhibitor |  | 5 µM | inhibition | 43% |
| COc1cc(-c2cncc3c2CN(C)Cc2cc(N4CCNCC4)ccc2-3)cc(OC)c1OC | Cyclin-dependent kinase-like 2 (CDKL2, Homo sapiens, UniProt Q92772) | enzyme activity, inhibitor |  | 1 µM | remaining activity | 104% |
| C#Cc1cc(-c2cc(Nc3nc(N[C@@H](C)c4ccc(F)cn4)ncc3Cl)n[nH]2)ccc1C=O | Phosphorylase b kinase gamma catalytic chain, liver/testis isoform (PHKG2, Homo sapiens, UniProt P15735) | enzyme activity, inhibitor |  | 0.2 µM | inhibition | 32.2% |
| Cc1c(OS(=O)(=O)Oc2cccc(C(C)C)c2)cccc1C(=O)NO | HDAC6 | enzyme activity, inhibitor, fluorescence |  | 10 µM | inhibition | 23% |
| C=CC(=O)N1CCC(COCC(=O)N2CCN(c3nc(-c4cnc(N)nc4C(F)F)nc(N4CCOC[C@@H]4C)n3)CC2)CC1 | Dual specificity tyrosine-phosphorylation-regulated kinase 2 (DYRK2, Homo sapiens, UniProt Q92630) | binding, competition with immobilised ligand |  | 1 µM | remaining binding | 99% |
| NC(=O)c1ccc(C(=O)NOCc2cccc(-c3ccccc3)c2)cc1 | SIRT6 | enzyme activity, inhibitor, fluorescence |  | 100 µM | inhibition | 84% |
| Cc1cc([C@@H](C)Nc2ccccc2C(=O)O)c2nc(N3CCC(F)(F)CC3)c(C#N)c(=O)n2c1 | Serine/threonine-protein kinase PAK 1 (PAK1, Homo sapiens, UniProt Q13153) | binding, competition with immobilised ligand |  | 10 µM | remaining binding | 100% |
| CC[C@H](C)[C@H](NC(=O)[C@H](CCC(N)=O)NC(=O)[C@H](CC(C)C)NC(=O)[C@H](CCSC)NC(=O)[C@H](CCCCN)NC(=O)[C@H](CO)NC(=O)[C@H](CO)NC(=O)[C@H](CCSC)NC(=O)[C@H](CC(C)C)NC(=O)[C@H](CC(N)=O)NC(=O)[C@@H](NC(=O)[C@@H](NC(=O)[C@H](CO)NC(=O)[C@H](CC(C)C)NC(=O)[C@H](CS)NC(=O)[C@H](CCCNC(=N)N)NC(=O)[C@H](CC(=O)O)NC(=O)[C@H](Cc1c[nH]c2ccccc12)NC(=O)[C@H](Cc1ccccc1)NC(=O)[C@H](C)NC(=O)[C@H](CCC(=O)O)NC(=O)[C@@H](N)CCCCN)C(C)C)[C@@H](C)CC)C(=O)N[C@@H](CC(N)=O)C(=O)N[C@@H](C)C(=O)O | Glycogen synthase kinase-3 beta (GSK3B, Homo sapiens, UniProt P49841) | enzyme activity, inhibitor, radiometric |  | 250 µM | inhibition | -19% |
| COc1ccc(Cc2nccc3cc(OC)c(OC)cc23)cc1OC | PDE10A | enzyme activity, inhibitor, FP |  | 0.1 µM | inhibition | 47% |
| CCc1nn(C)c2nc(-c3ccc(C(=O)O)cc3)nc(NCc3ccc(F)cc3)c12 | Dual 3',5'-cyclic-AMP and -GMP phosphodiesterase 11A (PDE11A, Homo sapiens, UniProt Q9HCR9) | enzyme activity, inhibitor, radiometric |  | 10 µM | inhibition | 55.3% |
| CC1(C)CC[C@]2(C(=O)O)CC[C@]3(C)C(=CC[C@@H]4[C@@]5(C)CC[C@H](O)C(C)(C)[C@@H]5CC[C@]43C)[C@@H]2C1 | USP51 | enzyme activity, inhibitor |  | 5 µM | inhibition | 26% |
| Cc1c(OS(=O)(=O)Oc2cccc(C(C)(C)C)c2)cccc1C(=O)NO | HDAC6 | enzyme activity, inhibitor, fluorescence |  | 10 µM | inhibition | 18% |
| COc1cc2ncnc(Cc3cccc(-c4ccccn4)c3)c2cc1OC | PDE10A | enzyme activity, inhibitor, FP |  | 0.1 µM | inhibition | 50% |
| O=C(O)/C=C/C(=O)O | USP51 | enzyme activity, inhibitor |  | 5 µM | inhibition | 10% |
| Cc1cc(O)c(-c2ccc([C@@H](C)CN(C)C)cc2)c2c1[nH]c(=O)c1sccc12 | Inositol-tetrakisphosphate 1-kinase (Homo sapiens, UniProt Q13572) | cell-free assay, inhibitor |  | 0.1 µM, lysate | inhibition | 5.69% |
| CC(C)c1ccc(OS(=O)(=O)Oc2cccc(C(=O)NO)c2)cc1 | HDAC1 | enzyme activity, inhibitor, fluorescence |  | 10 µM | inhibition | 46% |
| C1=C/COCc2cc(ccc2OCCN2CCCC2)Nc2nccc(n2)-c2cccc(c2)COC/1 | HUNK | binding |  | 0.1 µM | remaining binding | 100% |
| Cc1cc(OS(=O)(=O)Oc2ccc(Br)cc2)cc(C(=O)NO)c1 | HDAC1 | enzyme activity, inhibitor, fluorescence |  | 10 µM | inhibition | 18% |
| CCOC(=O)[C@@]12C[C@@H]1[C@@H](n1cnc3c(NCCO)nc(I)nc31)[C@H](O)[C@@H]2O | Sodium-dependent serotonin transporter (SLC6A4, Homo sapiens, UniProt P31645) | ligand displacement, radioligand |  | 10 µM | inhibition | 13% |
| Nc1c(Br)cc(Br)cc1CN[C@H]1CC[C@H](O)CC1 | SCN1A | ion current, inhibitor, patch clamp |  | 3 µM | inhibition | 14.1% |
| O=C(O)[C@H]1O[C@@H](Oc2cc3oc(-c4ccccc4)cc(=O)c3c(O)c2O)[C@H](O)[C@@H](O)[C@@H]1O | USP51 | enzyme activity, inhibitor |  | 5 µM | inhibition | 13% |
| CC(C)OCCn1c(=S)[nH]c(=O)c2[nH]ccc21 | MPO | enzyme activity, inhibitor, fluorescence |  | 5 µM | inhibition | 98.9% |
